Measurements collected from several papers.
Lines come from different studies, so protocols differ. Numbers after ± are the reported error.

COCC/N=C(\S)N/N=C(\C)c1ccccc1O  IC50 (HCC4017; cell growth or viability, MTS; 96 h): > 50 µM
N=C(N/N=C/c1ccc2ccccc2c1)N/N=C/c1ccc2ccccc2c1  IC50 (IMR-90; cell growth or viability, crystal violet; 72 h): 119 µM
N=C(N)NCCC[C@H](N)C(=O)N1CCC[C@H]1C(=O)N[C@@H](CC(=O)N[C@@H](Cc1ccc(O)cc1)C(=O)O)c1cccc2ccccc12  IC50 (BT-474 (HER2-overexpressing)): > 50 µM
CC(=O)O[C@@H]1[C@H](OC(C)=O)[C@@H](C)O[C@H]1n1cc(F)c(NC(=O)/C=C/c2ccc(O)c(O)c2)nc1=O  IC50 (AsPC-1; cell viability, MTT; 72 h): 133 ± 5.67 µM
CCCCCCCC(=O)Oc1c(C)c(OC)c2c(c1C)OC(=O)[C@@H](CCCCCC)[C@]2(O)/C=C/c1ccccc1 (racemic)  IC50 (KKU-M213; cell growth or viability, SRB; 72 h): > 50 µM
CC(C)c1cccc(C(C)C)c1N1CCN(c2c(C(C)C)cccc2C(C)C)C1=[Se].[Cl][Au]  IC50 (A-431; cell growth or viability, MTT; 72 h): 4.6 µM
CN(C)/C=C/C(=O)c1ccc2[nH]c3ncc(-c4ccc(N5CCN(C)CC5)cc4)cc3c2c1  IC50 (SUP-M2; cell growth or viability): 0.54 µM
C[O][Pt-2]([NH3+])([NH3+])([Cl])([Cl])[O]C(=O)CCC(=O)OCCO  IC50 (CH1; cell growth or viability, MTT; 96 h): 3.2 µM
CO[C@@H]1[C@@H](O[C@@H]2O[C@H](C)[C@@H](O[C@H]3C[C@@](C)(O)[C@@H](O)[C@H](C)O3)[C@H](N(C)C)[C@H]2O)[C@@H](CC=O)C[C@@H](C)[C@@H](O[C@H]2CC[C@H](N(C)C)[C@@H](C)O2)/C=C/C=C/C[C@@H](C)OC(=O)C[C@H]1OC(=O)c1ccc(C(C)(C)C)cc1  IC50 (HGC-27; cell growth or viability, CCK-8; 72 h): 7.97 µM
COc1cc(NC(=O)c2ccc(Cl)cc2Cl)ccc1C(=O)Nc1ccc(Cl)c(-c2nc3ccccc3[nH]2)c1  IC50 (NIH3T3-Gli-Luc; Hedgehog signalling, Gli-luciferase reporter; with: Shh-conditioned medium): 0.53 ± 0.05 µM
CC(=O)O[C@@H]1C[C@H]2C(C)(C)[C@H](O)CC[C@]2(C)[C@H]2CC[C@]34C[C@]3(CC[C@H]4[C@@H](C)C[C@@H](O)[C@H](O)C(C)(C)O)[C@@]21C  IC50 (fibroblasts; cytotoxicity, MTT): > 30 µM
CCCCCCCCC=CCCCCCCCC(=O)OCC1OC(n2ccc(N)nc2=O)C(F)(F)C1O (stereo not shown)  IC50 (LOX; cell growth; with: NBMPR 100 µM): 0.027 ± 0.0006 µM
C=Cc1cc2c(cc1OC)C1(C)Cc3cnc(C)nc3C(C)(C)C1CC2 (stereo not shown)  IC50 (TM3; cell growth or viability, SRB; 24 h): > 100 µM
Cc1ccc(C(C)C)cc1.Oc1ccccc1C=NNC1=Nc2ccccc2-c2[nH]c3ccc(Br)cc3c2C1.[Cl-].[Cl][Os+]  IC50 (CH1; cell growth or viability, MTT; 96 h): 1.6 µM
CC(C)=CCC1=C([O-])C(=O)c2ccccc2C1=O.CC(C)=CCC1=C([O-])C(=O)c2ccccc2C1=O.[Cu+2].c1ccc(-c2ccccn2)nc1  IC50 (A2780; cell viability, MTT; 48 h): 1 ± 0.3 µM
COc1nc(Nc2nc(O)c3ccccc3n2)nc2ccc(C)cc12  IC50 (HCC4017; cell growth or viability, MTS; 96 h): 16 µM
Cn1cc(-c2cc(N3CCCN(CC(F)F)S3(=O)=O)ccc2Oc2ccc(F)cc2F)c2cc[nH]c2c1=O  IC50 (Light II cells; GLI reporter gene, inhibitor; Hedgehog pathway): 0.0289 ± 0.0119 µM
CC(C)N(Cn1nc(-c2ccccc2)cc1-c1ccccc1)C(C)C  IC50 (3T3-L1; cell growth or viability, MTT): 114 µg/mL
C1=[N+]2CCCC[N+]3=Cc4ccc5[n]4[Au-]23[n]2c1ccc2-c1nc2ccccc2nc1-5.F[P-](F)(F)(F)(F)F  IC50 (NCI60 non-small cell lung lines): 15 µM
